Results from different studies.
Every numbered part comes from another study and shows a few of its results, in no order.

Set 1 — technique: RNA Bind-n-Seq; molecule type: RNA; sample: in vitro; concentration: not given; notes: RNA with constant flanks, ends assumed; reference: input RNA pool; reading: higher = stronger binding; quantity: bound/input enrichment
Target: RING finger protein unkempt homolog, zinc fingers 1-6, GST-SBP tag (UNK, Homo sapiens, UniProt Q9C0B0, residues 30-357)
Target sequence (chain): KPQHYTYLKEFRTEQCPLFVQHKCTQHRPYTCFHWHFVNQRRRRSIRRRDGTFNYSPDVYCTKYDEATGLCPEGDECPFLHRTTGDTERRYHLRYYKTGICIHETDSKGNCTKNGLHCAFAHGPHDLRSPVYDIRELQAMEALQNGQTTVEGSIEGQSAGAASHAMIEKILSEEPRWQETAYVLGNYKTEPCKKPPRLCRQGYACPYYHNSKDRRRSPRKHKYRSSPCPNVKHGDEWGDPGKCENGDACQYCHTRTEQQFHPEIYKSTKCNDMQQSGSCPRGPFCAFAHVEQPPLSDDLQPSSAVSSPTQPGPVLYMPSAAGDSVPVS
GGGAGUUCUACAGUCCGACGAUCCGUCACAAAGAACUUUUUGCUUUGCAUCCAUCACCAGAUGAGGAAGAACCAAUAGAACGGCUCCGUGUUCCUGAUAUACCCAAAGAACAUUUUGGUCAAAGACUUCUUGUAAAAUGCUUACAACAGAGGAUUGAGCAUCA: 0.155 ratio
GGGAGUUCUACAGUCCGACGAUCUACAUUGUAGUCAGCUACUUUUCAGAGCUUUUCCAUUUGCUGUCUCAGGGAAAUCGUAAGACCCGGAAUCUUGUUUUGAAAGUAUUUUUGAAUAUGUCUGAAAAUCCCAAGGCAGCCAGACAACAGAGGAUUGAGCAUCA: 0.306 ratio
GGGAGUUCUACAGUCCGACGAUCCAAGCAGCUCUUGAAUUUCAUGGUGUUGCCCAAGAUUUGUCUCAGCAGUUGGAUGGCUUAUCCGGGAUGUUGUGCGUAGAUGUAGCACCAGCUGAUGGAGCAUCGAUUCAGCAAACUUUACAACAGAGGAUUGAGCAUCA: 0.166 ratio
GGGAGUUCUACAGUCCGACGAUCGGUGGGACAGAAAAGACAUUGCAGUAUGAAGGAAGGCUUUGGUUUGCUCAAAGUGCCAGGUGCCGGGAUGAACCUCUGACGGGCUUUCUGCCCAAGAGAUGAGAUGAGAGCCUCCUCACCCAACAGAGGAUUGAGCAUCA: 0.261 ratio
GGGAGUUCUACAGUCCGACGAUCAGAAGGAAGCGAGCCCGGCAGAUCAAUGUUUCCACAGAUGACUCAGAGGUCAAAGCUUGCCUCCGAGCCUUGGGGGAACCCAUCACACUUUUUGGAGAGGGUCCUGCUGAAAGAAGAGAACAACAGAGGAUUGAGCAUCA: 0.285 ratio
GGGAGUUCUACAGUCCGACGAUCGCUUUAAGUCUUUUGGGGAGCCAUAAGCCCUUGAUUCUACAGCAUGAGAACCUGGAAACCACCGUGGACUUCAUAAAGAACACACUCCCCAACCUGGGCCUGGUGCAGAUGGAGAAGACCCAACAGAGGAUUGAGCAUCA: 0.24 ratio
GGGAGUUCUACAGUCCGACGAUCUCACAAGAUCUUUCAGCAGCACCCGCUGAACAGUAUCUUCAGGAGAAGCUGCCAGAUGAAGCCGUUUUAAAAAUAUUUUCUUAUUUGCUGGAACAAGACCUUUGUAGAGCUGCUUGCGUGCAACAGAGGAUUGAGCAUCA: 0.283 ratio
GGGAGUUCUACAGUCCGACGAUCUAAUUUUGGUCUGCUUAUUUUUAGAUAAAAUUGAAAGGAAUUGUAUAAAUCAAUUAACAUAUCCGCUGAGUUGUCCAACACAUGGUAUAAACGAAUUACAACAGUAAACUAUUACACAUUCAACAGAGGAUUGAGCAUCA: 1.09 ratio
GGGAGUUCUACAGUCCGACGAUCGAUUCACUCCCUCUGGUUGAUACCCACUCAAAAAGGACACUUCUGAUUAAGACGGUUGAAACCCGAGAUGGACAGGUUAUCAACGAAACUUCUCAGCAUCACGAUGACCUUGAAUAAAAACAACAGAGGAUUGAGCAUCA: 0.145 ratio
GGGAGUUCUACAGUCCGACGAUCCUUAGAAUAGGGAAGCUUGCUAUUUUAAAGCUCUUGUAGUGCUUUUCUUUUAAGGGAGAUGCCGUAAAAGGGAAAAUGUAGCUCUUAGUUUACACUUCAAAGAUGUGGGGGUCUUUCAGACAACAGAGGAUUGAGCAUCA: 1.04 ratio
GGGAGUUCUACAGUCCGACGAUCCAGGGCGUGAUCAAGUACAUGGGGCCGGCAGGGAGUAAGACCCUGCAGAGUGUUGUGCUCCGCAAGAUGAACUUUGAGUCUUUCGUGAAAGAUCUUCUUCUGGUUCGCCAGUAUCGAGUUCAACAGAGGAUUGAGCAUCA: 0.0943 ratio

Set 2 — technique: protein-binding microarray; molecule type: double-stranded DNA, one strand shown; sample: in vitro; concentration: 940 nM top; notes: 60-bp whole probe; together with: salmon DNA 0.4 mg/ml; reference: random background probes; reading: higher = stronger binding; quantity: fitted relative affinity; shared flanks, not repeated: GCCTAGCAC … GTCTTGATTCGCTTGACGCTGCTG
Target: Interferon regulatory factor 5, full length, phosphomimetic (IRF5, Homo sapiens, UniProt Q13568-2, residues 1-514, S451D/S453D/S456D/S462D)
TTAGGACTGGGTATCGGGTAGTGCTAG: 1.35 z-score
TCATCTTTCCATACTGCACTGTGCTAG: 1.22 z-score
GACGGTTTCGACACTAGGGACGTGCTA: 6.67 z-score
GACGGTTCCTTTTTCCTGACGTGCTAG: 0.753 z-score
TGTGCTTTCCTGATGGTTTTGTGCTAG: 0.477 z-score
TCATGTCCTCCTCTCTCACTGTGCTAG: 0.809 z-score
TCATTTTTTCTAATTGAACTGTGCTAG: 0.697 z-score
TTAGGTCTCGGACTGGGTTTGTGCTAG: 0.874 z-score
TTAGGTATCGGGTTTCGGTAAGTGCTA: 7.91 z-score
ACAAGTTTCTCCTTTCGGAAGTGCTAG: 3.77 z-score
TTAGGTTTCGATTATCGGTTAGTGCTA: 13.5 z-score
TTTGGTTTCGGTATCGGTTAGTGCTAG: 18.1 z-score
GACGGACTCGGTCTCGGGACGTGCTAG: 0.248 z-score
GACGATTTCGGGCTTCGAGACGTGCTA: 0.234 z-score
TTAGGTATCCTTATCATTTAGTGCTAG: 0.718 z-score
TCTAACTTCCCAATGGTCTTGTGCTAG: 0.442 z-score
GTCGGTCTCGGTTTCGGGACGTGCTAG: 8.89 z-score
TCACATTTTCTCTTATTACTGTGCTAG: 2.35 z-score
GACGATATCAGACTGGAAACGTGCTAG: -0.366 z-score
TTAGGTCTCATTTTCCTTTAGTGCTAG: 1.83 z-score
TTAGAACTGGGTTTTCGATTAGTGCTA: 0.91 z-score
GAGGGTTTCGGTTCCGGGACGTGCTAG: 10.8 z-score

Set 3 — technique: universal PBM; molecule type: double-stranded DNA, one strand shown; sample: in vitro; concentration: not given; reading: higher = stronger binding; quantity: E-score
Target: Sal-like protein 4, full length isoform B (SALL4, Homo sapiens, UniProt Q9UJQ4-2, residues 1-616)
Notes: 8-mer, flanks averaged, mean of replicates
Residues (chain): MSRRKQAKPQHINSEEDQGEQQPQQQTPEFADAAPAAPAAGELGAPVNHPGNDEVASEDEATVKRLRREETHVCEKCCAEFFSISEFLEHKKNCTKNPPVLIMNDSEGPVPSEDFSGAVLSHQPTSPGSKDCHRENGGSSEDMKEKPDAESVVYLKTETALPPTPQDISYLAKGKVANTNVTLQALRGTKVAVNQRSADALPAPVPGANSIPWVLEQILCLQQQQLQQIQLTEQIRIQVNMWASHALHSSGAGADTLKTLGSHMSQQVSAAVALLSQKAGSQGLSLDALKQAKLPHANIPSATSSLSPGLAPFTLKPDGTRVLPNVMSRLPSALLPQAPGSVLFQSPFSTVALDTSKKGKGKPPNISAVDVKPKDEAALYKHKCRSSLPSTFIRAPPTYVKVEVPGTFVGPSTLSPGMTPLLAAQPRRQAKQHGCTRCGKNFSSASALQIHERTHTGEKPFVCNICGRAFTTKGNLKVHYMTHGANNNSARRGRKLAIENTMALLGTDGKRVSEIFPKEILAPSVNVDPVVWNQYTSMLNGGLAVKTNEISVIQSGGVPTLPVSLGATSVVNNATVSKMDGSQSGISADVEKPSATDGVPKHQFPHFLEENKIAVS
TGGGGAAA: -0.0179
CAAGACTA: 0.173
AACATCTG: 0.0475
CGGCTTCC: -0.298
CTGCGTCA: -0.066
AATCTTCG: 0.233
AAGTGAAT: 0.2
GGACTGTA: 0.0906
CGGTTAGA: -0.159
ACCATCCG: -0.169
TGTTCAAA: 0.0752
CATAAGGA: 0.0588
CGTGAGCC: -0.222
CAGTACAA: 0.128
ACCACAGT: -0.0155
AGTGTGAA: 0.185
TATACGCA: 0.114
GCAATAGA: 0.08
GACTGATC: -0.0316
GGAATTCC: -0.145

Set 4 — technique: RNA Bind-n-Seq; molecule type: RNA; sample: in vitro; concentration: 365 nM; reference: no-protein control; reading: higher = stronger binding; quantity: RBNS enrichment (R)
Target: RNA binding protein fox-1 homolog 2, RRM domain, GST-SBP tag (RBFOX2, Homo sapiens, UniProt O43251-10, residues 100-194)
Notes: natural RNA segment, single round, ends assumed
Target sequence (chain): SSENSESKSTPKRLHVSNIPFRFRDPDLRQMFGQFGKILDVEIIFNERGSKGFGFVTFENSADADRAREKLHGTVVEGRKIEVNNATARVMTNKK
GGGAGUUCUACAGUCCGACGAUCUCCCACCCAGGGACCCCACCCUGGCCCAGUCCUCAGGUGGAUGACUGACGCACGGCAGGAGAUUUUUGUUUUUGUUUUCCUGUAUAUGAAAUGUUUUUCAAACCAUCCUCUGGAAUUCUCGGGUGCCAA: 1.14
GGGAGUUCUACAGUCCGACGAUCUUUCUUUUGUACUUUCCUAUAGAUGCUAUAGCAUUUGAGUGUGGCAAUAUUUUUGUUGUGUAUAGAUGUCUAAGAACCAACACUACUCAGUCUCCUGCUAGUCUGACUCCUGGAAUUCUCGGGUGCCAA: 0.398
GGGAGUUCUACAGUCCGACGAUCUCAUAUUUGUUGUAUAAACUGGUUUAAUACAUUUGGAACAUAGUUGGAUUACAUUCAUUUCCUGGGAAAGCUAGCUUACCAUACAUUCAAGUUUAUAAAACAAUUUGCCAUGGAAUUCUCGGGUGCCAA: 0.588
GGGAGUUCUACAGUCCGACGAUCGUUUCUAGUACACGAUAUGACGGGACCAAGUACAAGCUGGUGGUGGACAGAGCUGGGUGCCACAGUUUUCCACCAAGAGCAGCCUCUUUUCUUCAUGGAGUUCUCAGAACUGGAAUUCUCGGGUGCCAA: 0.274
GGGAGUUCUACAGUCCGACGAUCGUGGGCAAUGUUGGCGCUCACCUGGUCAGUGCACCAGUACCAGGUGGCCAUGAUGGUCAGACCAAAGGUCAUCCCAGUCCACGGGAGGUCUCCUGUGGAAGGGUCCCGGAUGGAAUUCUCGGGUGCCAA: 0.537
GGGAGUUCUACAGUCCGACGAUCCUACCCUUCCCCUUCCCCUCCCUUCCCUCUGCAAGGCUCAAGCCUGGUUUGCACUCAGUGUAGAAGAGCUCAGACGGGUGCCAGAUUAGCACUGAGCGGUAAAGGGUCUCUGGAAUUCUCGGGUGCCAA: 0.837
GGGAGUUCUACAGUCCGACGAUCAAAGGGACCUUCAAAGUGAAGACUGCCUUGUCCCGCAGCUCCUUCUGGCUUAGAUUGAAAAAUGGGCUUCCUAAUGGGUUAAAUCCUUUAAAACAAGGAGUUGUGGGGGAUGGAAUUCUCGGGUGCCAA: 0.262
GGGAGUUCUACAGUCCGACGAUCUUUCUUACCCAGGAGGCUUCUCUCAGUGGUUGGAAGUAAAACCAUCUCAAUGGGCCUAUACAGGAAAGGCUGUUAAUUUAAGUCUGUCGUUACUUUCUGGCGAAUUUAACUGGAAUUCUCGGGUGCCAA: 0.328
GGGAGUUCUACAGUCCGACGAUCGAGAGAAUUGGAAAUGCACGUGCUUAAAUGAUACAGCUUUAAUCUGUAUUAUGACUGCUGGUGGUAAGAGGAAUAUCUUUAAAUUUCUUAUGAAAACAAAUCCACAUUCAUGGAAUUCUCGGGUGCCAA: 0.395
